Assay results gathered from unrelated publications.
Protocols differ between the studies behind these lines. Several values in a cell are separate wells, animals, samples, runs or records. Numbers after ± are the reported error. No end group written: not given here.
B1: bicyclic; chain AATCHCRRSCYSTEYSYGTCTVMGINHRFCCL (also: bicyclic or more (positions not given here))
B2: disulfide; chain GLPVCGETCVGGTCNTPGCTCSWPVCTRN (disulfide (positions not given here))

| Molecule | tested on | test | system | setting | how to read | endpoint | value |
| --- | --- | --- | --- | --- | --- | --- | --- |
| caspofungin | – | – | adult ICU patients, mITT, serum | dose not given, day 4 | – | albumin | 25.9 g/L |
| EKPIDSETKM | human MAGI1-3/6 PDZ construct (MBP fusion) | automated holdup | peptide, crude extract | concentration not given, corrected by standard peak, unit not given | relative to: biotin control resin, higher = stronger binding | binding intensity | -0.149 |
| Polymyxin B | – | untargeted LC-MS metabolomics, item: ATP | Sprague-Dawley rat, right cerebral cortex | intracerebroventricular, 0.75 mg/kg, 1 h | relative to: NaCl control | log2 fold change | -4.2 |
| B1 | – | sedimentation velocity AUC | 10 mM Tris-maleate | 160 µM, pH 6.4, 20 °C | – | sedimentation coefficient S20,w | 0.808 S |
| LVHYTHCGSLGV | Epstein-Barr virus | – | peptide, EBV-infected humanized B-NDG mice | 20 mg/kg, day 0 | – | body weight | 21.1 g and 21.2 g |
| coproporphyrin I | – | – | human, plasma | concentration not given, baseline day | – | lowest mean plasma concentration | 0.636 ± 0.032 nM |
| KPGKGSETVV | human MAGI1-3/6 PDZ construct (MBP fusion) | automated holdup | peptide, crude extract | concentration not given, uncorrected, unit not given | relative to: biotin control resin, higher = stronger binding | binding intensity | 0.0963 |
| B2 | – | RP-HPLC | aqueous NH4HCO3, isopropanol | concentration not given, pH 8.5, room temperature, 50% v/v isopropanol, no redox | – | conversion to native fold | < 5% |
| KTKEGVVHGVATVA | – | far-UV circular dichroism, item: β-sheet | peptide, PBS | 10 µM, pH 7.4, 25 °C | – | secondary structure content | 45.6% |
| monomethyl auristatin F hydroxypropylamide | – | item: sum of compound and MMAF | Sprague Dawley rat, feces | intravenous, dose not given, 120 h, dosed as NaPi2b ADC, recovery-corrected | relative to: dose | excreted in feces | < 2% |
| FNA / CGLSGLGVA-NH2 ([18F]FNA-labelled, C-amide) | – | ex vivo gamma counting | peptide, glioblastoma mouse model, lung | 60 min post injection, added: 500-fold excess CooP blocking | – | tissue uptake | 0.29 %ID/g |
| Fluorescein isothiocyanate | – | – | PSP-2 condensates in DMEM | concentration not given, added: cargo 5 µM | – | encapsulation efficiency | > 90% |
| daptomycin | – | – | stock solution | 5 months, -40 °C | – | recovery | 108% |
| GPSQPPYPGDDAPVEDLIRFYDNLQQYLNVVTRHRY | – | CD thermal denaturation | peptide, sodium phosphate buffer with NaCl | 30 µM, pH 7.4 | – | melting temperature | 47.7 ± 1.6 °C |
| EESLSLSLSLSLSLEE | – | AFM | peptide, dried on mica from water | 0.1 wt% | – | nanofibre width | 8.7 ± 1.1 nm |
| Rilpivirine docusate | – | – | aqueous buffer | pH 6.8, below quantification limit | – | equilibrium solubility | 0.08 ± 0.01 µg/mL |
| CTOP | – | RP-HPLC | HALO C18 column | 25 µM, formic acid/methanol, 25 min gradient | – | retention time | 14.1 min |
| Teicoplanin | – | item: stability | human serum | 2 days, room temperature, high QC | – | recovery | 98.9% |
| [177Lu]Lu-DOTA-TATE | – | radio-HPLC | labelling formulation with quenchers | 24 h, 50 MBq/nmol | – | radiochemical purity | 93.4 ± 2.1% |
| coproporphyrin I | – | – | healthy human volunteers, urine | dose not given, 0-24 h, median, cumulative urine, added: ezetimibe plus rifampin | – | urine concentration | 19.5 nM |
| TFFYGGSRGKRNNFKTEEY-OH | – | in situ brain perfusion | peptide, mouse, right brain hemisphere | 5 min | relative to: input | brain uptake | 0.035 ± 0.005% |
| regorafenib N-β-glucuronide | – | – | wild-type mice | oral, regorafenib single dose, molecular weight corrected | – | metabolite to parent AUC ratio | 0.73% |
